Results pooled from the literature.
Parts stem from different laboratories: compare values within a part only. Several values in a cell are separate wells, animals, samples, runs or records.

Block 1
Technique: PRP chromatography
Setting: linear fit, 1 mL
Compound	logD 1,9-decadiene/water [log units]
CC(C)C[C@@H]1NC(=O)[C@@H](C)NC(=O)[C@@H](CC(C)C)NC(=O)[C@H](C)NC(=O)[C@H](C)NC(=O)[C@H](CC(C)C)NC(=O)[C@@H](CC(C)C)NC1=O	-1.67
CC(C)C[C@@H]1NC(=O)[C@H](CC(C)C)NC(=O)[C@@H](C(C)C)NC(=O)[C@@H](C)NC(=O)[C@H](C(C)C)NC(=O)[C@H](Cc2cscn2)NC(=O)[C@H](C)NC1=O	-2.53
CC(C)C[C@@H]1NC(=O)[C@H](C)NC(=O)[C@H](Cc2cscn2)NC(=O)[C@@H](CC(C)C)NC(=O)[C@H](C(C)C)NC(=O)[C@H](CC(C)C)NC(=O)[C@@H](CC(C)C)NC1=O	-1.67
CC(C)C[C@@H]1NC(=O)[C@H](CC(C)C)NC(=O)[C@@H](C(C)C)NC(=O)[C@H](CC(C)C)NC(=O)[C@@H](Cc2cscn2)NC(=O)[C@H](CCC(=O)N2CCCC2)NC(=O)[C@H](C)NC1=O	-3
CC(C)C[C@@H]1NC(=O)[C@H](C)NC(=O)[C@H](CC(C)C)NC(=O)[C@@H](CC(C)C)NC(=O)[C@H](CC(C)C)NC(=O)[C@@H](C)NC(=O)[C@@H](CC(C)C)NC1=O	-0.292
CC(C)C[C@@H]1NC(=O)[C@@H](C)NC(=O)[C@H](Cc2cscn2)NC(=O)[C@@H](C(C)C)NC(=O)[C@H](C(C)C)NC(=O)[C@H](CC(C)C)NC(=O)[C@@H](CC(C)C)NC1=O	0.187
CC(C)C[C@@H]1NC(=O)[C@H](CC(C)C)NC(=O)[C@@H](CC(C)C)NC(=O)[C@H](C(C)C)NC(=O)[C@H](C)NC(=O)[C@@H](CC(C)C)NC(=O)[C@H](C)NC1=O	-0.77
CC(C)C[C@@H]1NC(=O)[C@H](CC(C)C)NC(=O)[C@H](CC(C)C)NC(=O)[C@H](C(C)C)NC(=O)[C@@H](CCC(=O)N2CCCC2)NC(=O)[C@H](Cc2cscn2)NC(=O)[C@H](C)NC1=O	-4.41
CC(C)C[C@@H]1NC(=O)[C@H](CCC(=O)N2CCCC2)NC(=O)[C@H](CCC(=O)N2CCCC2)NC(=O)[C@@H](Cc2cscn2)NC(=O)[C@H](CC(C)C)NC(=O)[C@@H](CC(C)C)NC(=O)[C@H](CC(C)C)NC1=O	-1.21
CC(C)C[C@@H]1NC(=O)[C@H](C(C)C)NC(=O)[C@@H](CC(C)C)NC(=O)[C@@H](CC(C)C)NC(=O)[C@@H](CCC(=O)N2CCCC2)NC(=O)[C@H](CC(C)C)NC(=O)[C@@H](CC(C)C)NC1=O	0.481

Block 2
Species: human
Matrix: microsomes or S9
Tested at: 2 µM
Time: 0.5 h
SMILES	remaining compound [%]
Cc1cnn(CCCn2ncc(N(C)C)cc2=O)c1	90.2
O=C(Cc1csc(COc2ccccc2)n1)NCCc1c[nH]c2ccccc12	13.4
CC(C)c1nc2sc3c(c2c(=O)[nH]1)CC(C)(C)OC3	66.4
CCOC(=O)c1cn(-c2nc(Cl)ncc2Cl)cc1C(=O)OCC	0.414
O=C1OC(C(=O)O)Cc2c(F)cc(Br)cc21 (stereo not drawn)	> 100
CS(=O)(=O)N1CCC[C@H]1C(=O)NCCCn1nnc2ccccc21	94.5
Oc1cc(-c2ccc(-c3ccc(Br)cc3)cc2)nn1-c1ccccn1	> 99
N=c1c2cnn(-c3ccccc3)c2[nH]c(=O)n1-c1ccccc1	> 100
CC(C)(C)Nc1ncc(-c2cnn(C3CCN(C(=O)OC(C)(C)C)CC3)c2)cc1C(=O)O	65.3
CCOC(=O)c1c(C)c(C(=O)NCCCN(C)C)c(C)n1CC	> 99
CCCn1nc(C)c(-c2cncn2CCn2nc(C)c(C)c2C)c1C	43.2

Block 3
Cell line: normal organoid sample D
Technique: CellTiter-Glo
Species: human
Matrix: normal-adjacent epithelium
Tested at: 1 µM
Reference: DMSO
SMILES	viability
Cc1noc([C@H]2C[C@@H](c3ccc(C(F)(F)F)cc3)CN(C(=O)N3CCS(=O)(=O)C3)C2)n1	98.2% and 84.1%
CN1CCN(Cc2ccc(Nc3ncc(Cl)c(Nc4ccccc4S(=O)(=O)N(C)C)n3)cc2)CC1	2.8% and 2.1%
CCC(=O)N[C@H]1CC[C@@H](C(=O)N(C)c2ccc(-c3nc4ccccc4o3)cc2)C1	52.8% and 65%
C[C@@H](c1cccc(C#N)c1)n1cc(Cl)cc(C(N)=O)c1=N	109% and 140%
Cc1cn(-c2cc(NC(=O)c3ccc4c(c3)CN(c3cncnc3)C[C@@H]4C)cc(C(F)(F)F)c2)cn1	99% and 97.2%
Cn1cncc1[C@@](O)(COc1ccc(C#N)cc1-c1ccc(OC(F)(F)F)cc1)c1ccc(C#N)cc1	109% and 78.4%
Cn1cnc2c(F)c(Nc3ccc(Br)cc3Cl)c(C(=O)NOCCO)cc21	90.7% and 93.9%
CN1CCN(c2cnc3c(C4CCN(C(=O)c5ccc(OC(F)(F)F)cc5N)CC4)ncnc3c2)CC1	100% and 94.7%

Block 4
Target: Serine/threonine-protein kinase Nek9 (NEK9, Homo sapiens, UniProt Q8TD19)
Sequence of UniProt Q8TD19 (whole entry, looked up): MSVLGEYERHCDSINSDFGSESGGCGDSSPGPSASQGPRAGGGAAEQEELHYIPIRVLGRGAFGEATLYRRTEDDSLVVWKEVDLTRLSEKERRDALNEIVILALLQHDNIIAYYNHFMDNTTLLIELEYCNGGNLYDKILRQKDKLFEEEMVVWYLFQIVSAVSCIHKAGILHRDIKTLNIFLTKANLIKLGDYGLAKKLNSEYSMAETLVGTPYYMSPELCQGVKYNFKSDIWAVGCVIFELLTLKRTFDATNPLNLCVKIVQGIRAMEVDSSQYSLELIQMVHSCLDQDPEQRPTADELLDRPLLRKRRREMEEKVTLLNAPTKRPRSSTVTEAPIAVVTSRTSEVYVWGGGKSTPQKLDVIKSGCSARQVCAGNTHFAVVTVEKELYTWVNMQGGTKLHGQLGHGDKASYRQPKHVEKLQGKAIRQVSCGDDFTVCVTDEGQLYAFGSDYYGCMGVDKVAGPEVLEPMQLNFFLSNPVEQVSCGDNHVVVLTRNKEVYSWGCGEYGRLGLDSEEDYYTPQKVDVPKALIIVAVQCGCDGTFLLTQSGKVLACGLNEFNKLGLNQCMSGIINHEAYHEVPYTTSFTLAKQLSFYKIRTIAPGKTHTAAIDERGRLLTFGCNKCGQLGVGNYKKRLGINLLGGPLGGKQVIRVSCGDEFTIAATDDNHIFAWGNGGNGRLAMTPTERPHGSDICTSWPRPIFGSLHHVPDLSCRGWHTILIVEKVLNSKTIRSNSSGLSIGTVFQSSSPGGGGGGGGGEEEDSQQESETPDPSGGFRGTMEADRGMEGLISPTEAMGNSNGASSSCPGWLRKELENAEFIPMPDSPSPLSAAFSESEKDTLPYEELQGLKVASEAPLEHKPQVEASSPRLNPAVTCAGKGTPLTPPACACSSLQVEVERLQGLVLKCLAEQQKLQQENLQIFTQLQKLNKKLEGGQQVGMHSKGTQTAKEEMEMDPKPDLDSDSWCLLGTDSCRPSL
Observed: enzyme activity
Mode: inhibitor
Tested at: 0.5 µM
Reference: control
SMILES	remaining activity [%]
O=C(c1cc2cc(O)ccc2[nH]1)c1cc2cc(O)ccc2[nH]1	93.6
c1cc(-c2cnn3cc(-c4ccc(OCCN5CCCCC5)cc4)cnc23)ccn1	96.4
C[C@@H](N)[C@H]1CC[C@H](C(=O)Nc2ccncc2)CC1	93.1
COc1cccc(-c2cc(=O)c3ccccc3o2)c1N	102
O=C(O)/C=C/c1cc(Br)c(Br)c(Br)c1Br	94.7
O=C1c2ccccc2-c2nc3nnnn3nc21	119
O=C(c1ccccc1)c1ccc(N2CCOCC2)cc1O	103
CN(C)S(=O)(=O)c1ccc2c(c1)/C(=C/c1cc3c([nH]1)CCCC3)C(=O)N2	93.2
FC(F)(F)c1ccc(/C=C/c2nc(COc3ccc(CCCCn4ccnn4)cc3)co2)cc1	95.5
O=C1Cc2c([nH]c3ccc(Br)cc23)-c2ccccc2N1	94
O=C1NC(=O)c2c1c1c3ccccc3[nH]c1c1[nH]c3cc(Br)ccc3c21	83.6
CCCNC(=O)Nc1ccc(Oc2ncnc3cc(OC)c(OC)cc23)cc1Cl	83.3
COc1cc2c(Nc3ccc(Br)cc3F)ncnc2cc1OCC1CCN(C)CC1	101
CC(C)(C)c1nc2c3cc[nH]c(=O)c3c3cc(F)ccc3c2[nH]1	71.7
N#Cc1cnc2cnc(NCc3cccnc3)cc2c1Nc1ccc(F)c(Cl)c1	96.3
O=C1Nc2ccccc2/C1=C\c1c(Cl)[nH]c2ccccc12	94.2
N#CC(c1ccnc(NCCc2cccnc2)n1)c1nc2ccccc2s1 (stereo not drawn)	94.4
CC(C)N(CCC(=O)c1ccc2ccccc2c1)Cc1ccccc1	96.4
CCCCc1c(-c2ccc(OC)cc2)[nH]c2nccnc12	106
COc1cc2c(N3CCN(C(=O)Nc4ccc(OC(C)C)cc4)CC3)ncnc2cc1OCCCN1CCCCC1	97.2
c1ccc(-c2n[nH]c3c2oc2ccccc23)cc1	99
O=c1cc(N2CCOCC2)oc2c(-c3ccccc3)cccc12	101
CCN(CC)CCCCN1c2ccccc2Oc2ccc(Cl)cc21	98.8
Cc1ccc(S(=O)(=O)/C=C/C#N)cc1	95.6
CC(C)n1cnc2c(Nc3cccc(Cl)c3)nc(NCCO)nc21	81.1

Some of these lines once more (block 3):
SMILES	viability
Cc1noc([C@H]2C[C@@H](c3ccc(C(F)(F)F)cc3)CN(C(=O)N3CCS(=O)(=O)C3)C2)n1	98.2% and 84.1%
CN1CCN(Cc2ccc(Nc3ncc(Cl)c(Nc4ccccc4S(=O)(=O)N(C)C)n3)cc2)CC1	2.8% and 2.1%
CCC(=O)N[C@H]1CC[C@@H](C(=O)N(C)c2ccc(-c3nc4ccccc4o3)cc2)C1	52.8% and 65%
C[C@@H](c1cccc(C#N)c1)n1cc(Cl)cc(C(N)=O)c1=N	109% and 140%
Cc1cn(-c2cc(NC(=O)c3ccc4c(c3)CN(c3cncnc3)C[C@@H]4C)cc(C(F)(F)F)c2)cn1	99% and 97.2%
Cn1cncc1[C@@](O)(COc1ccc(C#N)cc1-c1ccc(OC(F)(F)F)cc1)c1ccc(C#N)cc1	109% and 78.4%
Cn1cnc2c(F)c(Nc3ccc(Br)cc3Cl)c(C(=O)NOCCO)cc21	90.7% and 93.9%
CN1CCN(c2cnc3c(C4CCN(C(=O)c5ccc(OC(F)(F)F)cc5N)CC4)ncnc3c2)CC1	100% and 94.7%
